{"data": "Assay results of several laboratories", "note": "A part holds a random share of what one study measured.", "sequence of UniProt Q9P286 (whole entry, looked up)": "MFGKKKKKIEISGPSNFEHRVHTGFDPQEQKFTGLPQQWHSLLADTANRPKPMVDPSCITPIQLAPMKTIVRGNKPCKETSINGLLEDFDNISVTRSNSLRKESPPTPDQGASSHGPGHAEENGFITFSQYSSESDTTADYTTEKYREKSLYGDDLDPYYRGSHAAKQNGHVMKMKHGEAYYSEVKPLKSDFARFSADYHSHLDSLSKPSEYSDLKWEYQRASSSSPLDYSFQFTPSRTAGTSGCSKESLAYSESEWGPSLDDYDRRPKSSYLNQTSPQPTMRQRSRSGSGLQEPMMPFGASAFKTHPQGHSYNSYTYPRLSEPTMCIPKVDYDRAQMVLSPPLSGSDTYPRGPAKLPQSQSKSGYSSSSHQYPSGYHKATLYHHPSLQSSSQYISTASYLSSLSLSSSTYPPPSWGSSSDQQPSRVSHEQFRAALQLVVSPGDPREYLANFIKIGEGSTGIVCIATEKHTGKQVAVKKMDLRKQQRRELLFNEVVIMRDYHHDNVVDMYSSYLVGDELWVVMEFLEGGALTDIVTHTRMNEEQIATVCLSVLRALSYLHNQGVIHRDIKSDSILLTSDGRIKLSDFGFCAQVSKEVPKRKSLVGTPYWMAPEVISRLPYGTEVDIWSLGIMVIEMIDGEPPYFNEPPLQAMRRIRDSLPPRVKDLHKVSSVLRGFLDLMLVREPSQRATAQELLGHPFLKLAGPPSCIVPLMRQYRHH", "sequence of UniProt Q92630 (whole entry, looked up)": "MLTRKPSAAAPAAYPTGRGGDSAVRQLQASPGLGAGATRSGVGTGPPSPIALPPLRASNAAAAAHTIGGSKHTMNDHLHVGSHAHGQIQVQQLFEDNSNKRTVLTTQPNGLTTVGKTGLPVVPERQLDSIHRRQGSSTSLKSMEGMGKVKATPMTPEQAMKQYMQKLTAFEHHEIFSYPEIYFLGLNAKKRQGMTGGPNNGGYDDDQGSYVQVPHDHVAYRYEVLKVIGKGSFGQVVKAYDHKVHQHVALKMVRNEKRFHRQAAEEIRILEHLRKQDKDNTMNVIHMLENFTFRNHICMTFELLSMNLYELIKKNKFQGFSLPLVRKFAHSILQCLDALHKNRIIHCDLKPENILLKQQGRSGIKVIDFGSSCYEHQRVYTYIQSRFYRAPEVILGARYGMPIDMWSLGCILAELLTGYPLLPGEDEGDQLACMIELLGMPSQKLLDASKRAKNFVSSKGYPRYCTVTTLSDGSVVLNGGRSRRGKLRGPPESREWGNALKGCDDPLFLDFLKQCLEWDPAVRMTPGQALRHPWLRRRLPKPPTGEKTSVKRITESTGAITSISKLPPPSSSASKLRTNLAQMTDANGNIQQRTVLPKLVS", "sequence of UniProt Q9Y243 (whole entry, looked up)": "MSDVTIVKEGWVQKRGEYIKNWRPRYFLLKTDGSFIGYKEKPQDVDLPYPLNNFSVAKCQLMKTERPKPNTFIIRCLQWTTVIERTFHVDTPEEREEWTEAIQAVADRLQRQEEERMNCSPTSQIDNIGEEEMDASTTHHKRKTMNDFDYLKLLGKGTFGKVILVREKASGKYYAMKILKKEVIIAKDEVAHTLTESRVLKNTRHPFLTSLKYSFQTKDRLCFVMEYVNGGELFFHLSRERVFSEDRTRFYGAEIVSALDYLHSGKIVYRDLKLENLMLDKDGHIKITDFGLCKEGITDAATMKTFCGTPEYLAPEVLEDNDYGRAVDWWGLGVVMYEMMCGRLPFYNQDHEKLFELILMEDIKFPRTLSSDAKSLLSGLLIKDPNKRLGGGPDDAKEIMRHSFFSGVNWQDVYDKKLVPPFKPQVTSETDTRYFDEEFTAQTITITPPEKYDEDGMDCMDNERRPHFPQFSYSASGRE", "sequence of UniProt P78356 (whole entry, looked up)": "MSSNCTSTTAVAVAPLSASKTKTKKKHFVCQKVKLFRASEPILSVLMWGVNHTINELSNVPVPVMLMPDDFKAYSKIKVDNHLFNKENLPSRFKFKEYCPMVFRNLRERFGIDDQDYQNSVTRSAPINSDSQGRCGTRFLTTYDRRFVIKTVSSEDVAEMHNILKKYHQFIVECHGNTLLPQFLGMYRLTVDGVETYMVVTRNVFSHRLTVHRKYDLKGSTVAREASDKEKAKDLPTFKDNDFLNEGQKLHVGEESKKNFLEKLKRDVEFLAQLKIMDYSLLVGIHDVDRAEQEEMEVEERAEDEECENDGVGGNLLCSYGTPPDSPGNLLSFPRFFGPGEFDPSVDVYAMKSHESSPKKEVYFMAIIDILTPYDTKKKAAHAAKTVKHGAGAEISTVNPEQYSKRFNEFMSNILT", "sequence of UniProt Q8NFD2 (whole entry, looked up)": "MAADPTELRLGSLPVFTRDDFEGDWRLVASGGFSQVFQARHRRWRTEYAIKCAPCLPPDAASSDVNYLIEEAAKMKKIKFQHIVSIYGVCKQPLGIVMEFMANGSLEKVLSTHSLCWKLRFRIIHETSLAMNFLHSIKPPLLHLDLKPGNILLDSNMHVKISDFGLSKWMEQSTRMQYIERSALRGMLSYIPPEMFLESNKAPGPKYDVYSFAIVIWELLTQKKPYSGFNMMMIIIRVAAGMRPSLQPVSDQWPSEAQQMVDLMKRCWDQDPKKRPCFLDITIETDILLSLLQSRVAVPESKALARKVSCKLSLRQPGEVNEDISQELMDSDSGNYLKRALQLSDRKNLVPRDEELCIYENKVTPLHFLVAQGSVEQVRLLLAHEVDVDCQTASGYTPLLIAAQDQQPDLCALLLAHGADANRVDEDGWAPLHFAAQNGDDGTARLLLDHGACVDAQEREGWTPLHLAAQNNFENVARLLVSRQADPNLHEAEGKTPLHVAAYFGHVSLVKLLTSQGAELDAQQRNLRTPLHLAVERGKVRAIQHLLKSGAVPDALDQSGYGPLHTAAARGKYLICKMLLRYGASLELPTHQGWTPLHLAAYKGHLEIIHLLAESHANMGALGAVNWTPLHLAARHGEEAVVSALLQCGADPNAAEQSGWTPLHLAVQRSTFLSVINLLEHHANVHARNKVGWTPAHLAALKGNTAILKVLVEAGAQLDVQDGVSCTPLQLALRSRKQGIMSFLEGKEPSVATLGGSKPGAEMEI", "sequence of UniProt Q15418 (whole entry, looked up)": "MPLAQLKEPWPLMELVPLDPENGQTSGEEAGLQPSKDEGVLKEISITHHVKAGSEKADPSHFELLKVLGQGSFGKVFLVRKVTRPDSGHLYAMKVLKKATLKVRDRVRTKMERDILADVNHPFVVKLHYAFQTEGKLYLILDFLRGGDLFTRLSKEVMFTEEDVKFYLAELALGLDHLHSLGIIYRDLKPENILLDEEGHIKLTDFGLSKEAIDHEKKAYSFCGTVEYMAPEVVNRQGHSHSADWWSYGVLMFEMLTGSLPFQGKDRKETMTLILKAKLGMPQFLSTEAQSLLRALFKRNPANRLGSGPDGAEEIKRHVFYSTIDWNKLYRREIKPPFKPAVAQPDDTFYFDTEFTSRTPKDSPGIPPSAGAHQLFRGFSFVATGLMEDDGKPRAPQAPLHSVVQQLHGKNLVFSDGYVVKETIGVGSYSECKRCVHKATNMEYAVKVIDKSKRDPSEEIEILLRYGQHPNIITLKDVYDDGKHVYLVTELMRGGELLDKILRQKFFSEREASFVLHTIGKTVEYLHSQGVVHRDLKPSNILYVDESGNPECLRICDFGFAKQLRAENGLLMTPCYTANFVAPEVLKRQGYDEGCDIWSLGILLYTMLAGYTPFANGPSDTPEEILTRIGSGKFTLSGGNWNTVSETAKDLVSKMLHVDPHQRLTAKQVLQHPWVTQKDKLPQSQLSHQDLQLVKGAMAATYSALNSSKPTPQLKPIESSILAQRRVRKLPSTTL", "sequence of UniProt P49759 (whole entry, looked up)": "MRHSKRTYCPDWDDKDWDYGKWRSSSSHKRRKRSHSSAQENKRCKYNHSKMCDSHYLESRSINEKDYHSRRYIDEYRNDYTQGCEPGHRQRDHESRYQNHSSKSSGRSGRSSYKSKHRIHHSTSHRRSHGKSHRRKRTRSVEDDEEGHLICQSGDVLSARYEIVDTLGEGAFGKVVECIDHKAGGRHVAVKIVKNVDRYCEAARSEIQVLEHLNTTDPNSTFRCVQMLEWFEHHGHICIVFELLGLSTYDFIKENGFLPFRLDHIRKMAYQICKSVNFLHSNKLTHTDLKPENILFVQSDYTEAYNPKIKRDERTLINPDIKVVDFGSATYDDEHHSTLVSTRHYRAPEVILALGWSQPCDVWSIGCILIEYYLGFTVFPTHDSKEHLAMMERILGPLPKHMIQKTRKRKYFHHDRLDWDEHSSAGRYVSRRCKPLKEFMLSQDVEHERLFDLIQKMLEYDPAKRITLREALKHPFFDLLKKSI"}
{"data": "Block 1", "target": "Calcium/calmodulin-dependent protein kinase type II subunit alpha (CAMK2A, Homo sapiens, UniProt Q9UQM7)", "read-out": "enzyme activity", "mode": "inhibitor", "concentration": "10 µM", "sequence of UniProt Q9UQM7 (whole entry, looked up)": "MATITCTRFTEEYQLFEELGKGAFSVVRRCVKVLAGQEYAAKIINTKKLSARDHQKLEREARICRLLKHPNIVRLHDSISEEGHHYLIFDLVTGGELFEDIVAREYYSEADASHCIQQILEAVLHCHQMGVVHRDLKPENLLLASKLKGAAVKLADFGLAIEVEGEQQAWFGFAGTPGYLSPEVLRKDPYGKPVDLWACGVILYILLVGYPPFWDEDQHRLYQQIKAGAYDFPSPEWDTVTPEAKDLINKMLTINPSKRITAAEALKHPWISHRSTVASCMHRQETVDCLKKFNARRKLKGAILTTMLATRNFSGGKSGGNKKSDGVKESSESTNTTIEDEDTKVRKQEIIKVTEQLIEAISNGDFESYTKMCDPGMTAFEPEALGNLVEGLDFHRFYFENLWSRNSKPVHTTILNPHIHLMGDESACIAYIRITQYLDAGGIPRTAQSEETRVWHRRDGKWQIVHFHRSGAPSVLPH"}
{"Compound": "C=C(C)[C@@H]1CC[C@]2(C)[C@H](CC=C3[C@@H]4[C@@H](C)[C@H](C)CC[C@]4(C)CC[C@]32C)[C@@]1(C)CCC(=O)O", "inhibition [%]": -26}
{"Compound": "CC(=O)O[C@H]1CC[C@]2(C)C3=C(CC[C@H]2C1(C)C)[C@]1(C)CC[C@H]([C@@H](CCC=C(C)C)C(=O)O)[C@@]1(C)CC3", "inhibition [%]": 4}
{"Compound": "O[C@H]1[C@H](O)[C@@H](O)[C@H](O)[C@@H](O)[C@H]1O", "inhibition [%]": 3}
{"Compound": "CCN(CC)CCOc1ccc(/C(=C(/Cl)c2ccccc2)c2ccccc2)cc1", "inhibition [%]": -6}
{"Compound": "NS(=O)(=O)c1ccc(N2CCCCS2(=O)=O)cc1", "inhibition [%]": -18}
{"data": "Block 2", "Structure (SMILES)": "CO[C@@H]1[C@H](N(C)C(=O)c2ccccc2)C[C@H]2O[C@]1(C)n1c3ccccc3c3c4c(c5c6ccccc6n2c5c31)C(=O)NC4", "mode": "inhibitor", "concentration": "1 µM"}
{"target": "PAK5 (Homo sapiens, UniProt Q9P286)", "read-out": "enzyme activity", "inhibition [%]": 0}
{"target": "DYRK2 (Homo sapiens, UniProt Q92630)", "read-out": "enzyme activity", "inhibition [%]": 12}
{"target": "AAK1 (Homo sapiens, UniProt Q2M2I8)", "read-out": "enzyme activity", "inhibition [%]": 96}
{"target": "PIP4K2B (Homo sapiens, UniProt P78356)", "read-out": "enzyme activity", "inhibition [%]": 99}
{"target": "Ribosomal protein S6 kinase alpha-1, kinase domain 1 (RPS6KA1, Homo sapiens, UniProt Q15418)", "inhibition [%]": 86}
{"target": "CLK1 (Homo sapiens, UniProt P49759)", "read-out": "enzyme activity", "inhibition [%]": 87}
{"target": "ANKK1 (Homo sapiens, UniProt Q8NFD2)", "read-out": "enzyme activity", "inhibition [%]": 1}
{"target": "WNK1 (Homo sapiens, UniProt Q9H4A3)", "read-out": "enzyme activity", "inhibition [%]": 15}
{"target": "AKT3 (Homo sapiens, UniProt Q9Y243)", "read-out": "enzyme activity", "inhibition [%]": 0}
{"data": "Block 3", "target": "Serine/threonine-protein kinase PAK 5 (PAK5, Homo sapiens, UniProt Q9P286)", "read-out": "enzyme activity", "mode": "inhibitor", "concentration": "0.5 µM", "baseline": "control"}
{"SMILES": "Oc1ccc(-c2nc(-c3ccncc3)c(-c3ccc(F)cc3)[nH]2)cc1", "remaining activity [%]": 107}
{"SMILES": "Cn1sc(=O)n(Cc2ccccc2)c1=O", "remaining activity [%]": 81.1}
{"SMILES": "C#Cc1cccc(Nc2ncnc3cc(OCCOC)c(OCCOC)cc23)c1", "remaining activity [%]": 97.3}
{"SMILES": "Cn1c2ccccc2c2c3c(c4c5ccccc5n(CCC#N)c4c21)CNC3=O", "remaining activity [%]": 37.1}
{"SMILES": "O=C(O)c1ccc2c3c1cccc3c(=O)n1c3ccccc3nc21", "remaining activity [%]": 98.7}
{"SMILES": "Nc1ncnc2n[nH]c(Nc3ccc(F)cc3)c12", "remaining activity [%]": 116}
{"SMILES": "COc1ccc(C(=O)Nc2sc3c(c2C(N)=O)CCCC3)cc1OC", "remaining activity [%]": 96.6}
{"SMILES": "COc1cc2nccc(Oc3ccc(NC(=S)NC(=O)c4ccccc4C)cc3)c2cc1OC", "remaining activity [%]": 102}
{"SMILES": "CNC(=O)c1cc(Oc2ccc(NC(=O)Nc3ccc(Cl)c(C(F)(F)F)c3)cc2)ccn1", "remaining activity [%]": 95.9}
{"SMILES": "O=C(Nc1cccc(Nc2cc(Nc3cccc(C(F)(F)F)c3)ncn2)c1)C1CC1", "remaining activity [%]": 97.5}
{"SMILES": "OCC(O)CCON=C1C(c2c(O)[nH]c3ccccc23)=Nc2ccccc21 (stereo not drawn)", "remaining activity [%]": 81}
{"SMILES": "O=C1NC(=O)C(c2cn(CCCO)c3ncccc23)=C1c1cnccn1", "remaining activity [%]": 88.2}
{"SMILES": "COc1cc2ncnc(Nc3ccc(F)c(Cl)c3)c2cc1OCCCN1CCOCC1", "remaining activity [%]": 97.4}
{"SMILES": "CCOC(=O)c1c(C)[nH]c(/C=C2\\C(=O)Nc3ccccc32)c1C", "remaining activity [%]": 83.9}
{"SMILES": "O=S(=O)(c1cccc2cnccc12)N1CCCNCC1", "remaining activity [%]": 73.1}
{"data": "Block 4", "cell line": "A-375", "concentration": "100 µM", "time": "36 h"}
{"SMILES": "CCOC(=O)c1ncn2c1CN(C)C(=O)c1cc(F)ccc1-2", "viability": "99.1%"}
{"SMILES": "COC(=O)Nc1nc2ccc(Sc3ccccc3)cc2[nH]1", "viability": "15.8%"}
{"SMILES": "CC(=O)O[C@H]1CC[C@@]2(C)C(=CC[C@@H]3[C@@H]2CC[C@]2(C)C(c4cccnc4)=CC[C@@H]32)C1", "viability": "1.57%"}
{"SMILES": "O=C(CCCN1CC=C(n2c(=O)[nH]c3ccccc32)CC1)c1ccc(F)cc1", "viability": "36.2%"}
{"SMILES": "CC[C@H](C)C[C@H](C)CCCCCCCCC(=O)N[C@H]1C[C@@H](O)[C@@H](NCCN)NC(=O)[C@@H]2[C@@H](O)CCN2C(=O)[C@H]([C@H](O)CCN)NC(=O)[C@H]([C@H](O)[C@@H](O)c2ccc(O)cc2)NC(=O)[C@@H]2C[C@@H](O)CN2C(=O)[C@H]([C@@H](C)O)NC1=O", "viability": "12.8%"}
{"SMILES": "Cc1nnc(C(C)C)n1[C@@H]1C[C@H]2CC[C@@H](C1)N2CC[C@H](NC(=O)C1CCC(F)(F)CC1)c1ccccc1", "viability": "106%"}
{"SMILES": "CC#C[C@]1(O)CC[C@H]2[C@@H]3CCC4=CC(=O)CCC4=C3[C@@H](c3ccc(N(C)C)cc3)C[C@@]21C", "viability": "24.8%"}
